Experimental data pooled from the literature.
Each numbered part is a random draw from the data of one study; scales do not carry over between parts. Positions count from the first letter of the parent shown.

Block 1
Target: CCND2, cyclin fold, Cln2 fusion (human)
Method: yeast growth competition, sequencing
Medium: yeast
Notes: strong parent motif
Reference: not given
Reading: higher = stronger binding
Parent: INSM1 docking peptide (human); PKAIRKLHFEDEV; partner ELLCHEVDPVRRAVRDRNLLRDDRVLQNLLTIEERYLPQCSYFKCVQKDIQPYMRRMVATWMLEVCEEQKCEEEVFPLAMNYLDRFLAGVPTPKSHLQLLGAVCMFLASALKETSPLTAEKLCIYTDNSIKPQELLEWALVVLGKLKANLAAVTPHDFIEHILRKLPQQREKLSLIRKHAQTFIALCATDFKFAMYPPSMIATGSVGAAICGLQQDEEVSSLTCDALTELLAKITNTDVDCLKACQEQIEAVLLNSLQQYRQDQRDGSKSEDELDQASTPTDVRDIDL
For `I4L`, “normalised enrichment score” read 0.674.
For `K6H`, “normalised enrichment score” read 1.25.
`D11P`: “normalised enrichment score” 1.56.
Under “normalised enrichment score”, `L7F` is recorded as 0.174.
Under “normalised enrichment score”, `D11I` is recorded as 1.79.
`D11M`: “normalised enrichment score” 1.34.
`E10N` — result for “normalised enrichment score”: 1.74.
`I4M`: “normalised enrichment score” 1.46.
For `H8V`, “normalised enrichment score” read 3.56.
For `D11H`, “normalised enrichment score” read 1.36.
`I4C`: “normalised enrichment score” 2.37.
`E10T`: “normalised enrichment score” 1.76.
`K6A`: “normalised enrichment score” 1.77.
Under “normalised enrichment score”, `R5L` is recorded as 0.685.
`A3D` — result for “normalised enrichment score”: -0.201.
Under “normalised enrichment score”, `L7S` is recorded as 0.12.
`I4Y` — result for “normalised enrichment score”: 0.202.
Under “normalised enrichment score”, `F9W` is recorded as 0.814.
`E12L`: “normalised enrichment score” 1.38.
Under “normalised enrichment score”, `K2N` is recorded as 2.14.
For `F9E`, “normalised enrichment score” read 0.343.
Under “normalised enrichment score”, `E12F` is recorded as 1.71.
For `R5V`, “normalised enrichment score” read 0.52.
`R5M`: “normalised enrichment score” 1.11.
`D11V`: “normalised enrichment score” 1.67.

Block 2
Target: CREM, bZIP domain (human)
Method: DHFR protein complementation
Medium: yeast
Notes: single substitutions, most at no-binding floor
Reference: wild-type JUN-FOS pair
Reading: higher = stronger binding
Parent: JUN, bZIP domain (human); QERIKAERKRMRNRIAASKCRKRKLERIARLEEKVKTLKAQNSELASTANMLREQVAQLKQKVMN; partner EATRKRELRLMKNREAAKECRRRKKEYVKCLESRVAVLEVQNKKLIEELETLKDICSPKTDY
For `E33P`, the binding fitness was -1.49 natural log.
For `L38D`, the binding fitness was -1.52 natural log.
For `V56T`, the binding fitness was -1.47 natural log.
The binding fitness of `L45G` is reported as -1.54 natural log.
The binding fitness of `K34G` is reported as -1.2 natural log.
For `E33T`, the binding fitness was -1.47 natural log.
`V56L` has a binding fitness of -1.49 natural log.
`N42W` gave a binding fitness of -1.48 natural log.
The binding fitness of `V35W` is reported as -1.47 natural log.
For `K39L`, the binding fitness was -1.42 natural log.
`S43H` has a binding fitness of -1.47 natural log.
`V56E` has a binding fitness of -1.49 natural log.
With `T37E` the binding fitness was -1.44 natural log.
With `A40M` the binding fitness was -1.34 natural log.
The binding fitness of `S47T` is reported as -1.47 natural log.
The binding fitness of `L45E` is reported as -1.4 natural log.
The binding fitness of `K39E` is reported as -1.11 natural log.
With `S43W` the binding fitness was -1.46 natural log.

Block 3
Target: RNA binding protein fox-1 homolog 2, RRM domain, GST-SBP tag (RBFOX2, Homo sapiens, UniProt O43251-10, residues 100-194)
Method: RNA Bind-n-Seq
Molecule type: RNA
Medium: in vitro
Tested at: 365 nM
Notes: natural RNA segment, single round, ends assumed
Reference: no-protein control
Reading: higher = stronger binding
Residues (chain): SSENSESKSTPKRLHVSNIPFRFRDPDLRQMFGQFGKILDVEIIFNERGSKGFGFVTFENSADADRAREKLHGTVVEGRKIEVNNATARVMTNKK
Under “RBNS enrichment (R)”, `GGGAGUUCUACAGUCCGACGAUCGAUAGAGGCAGUUUCUAGAGAACUCGGUCUUAUCGUGGGUUCUGGAGCACACCUCUCAGACCAGUCAGGAACACUGGGGAGGUGACAGCAGGUCCCCAGGGGCCUGCAGGUGGAAUUCUCGGGUGCCAA` is recorded as 0.266.
`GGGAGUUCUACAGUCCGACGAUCCCUUAUAGGUCCAUGACCUGCUCUGUUCAGAGGCCUCUUGGCAGUGUGGCCUGUUUGUGCUGUCCUGCAUCCAGUGUGUUGGCCUGGCUAAGUGAAAACGGUGAGCUGUUUGGAAUUCUCGGGUGCCAA` — result for “RBNS enrichment (R)”: 0.563.
`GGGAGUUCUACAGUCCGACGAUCUAAGCUCUGUUACACUAGGUGUUAGAGUUCCAGAAUGUUCUUUUGUUUGCUAAACCUUGAAGAAACAUGUGCCUCAGCCUAGAUGUUUUGUCUUCUCUUUUCUGCACUUAUGGAAUUCUCGGGUGCCAA` — result for “RBNS enrichment (R)”: 0.595.
`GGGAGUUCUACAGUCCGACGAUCAGCAGAAUUAGAAAGAGCAUUCCCCACUUGCAGUGUCCUUCUCACAGGGAAGUCAGACGGUGGAAGAUCUGCUGCAACCAUUAUCUCUGUUCUUUGUGUAUCAUGCAUUUUGGAAUUCUCGGGUGCCAA` — result for “RBNS enrichment (R)”: 0.948.
`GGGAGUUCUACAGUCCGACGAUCCACGGCACGCAGCCAGCAAGUUGUUUUUAAAUGUUAAUAUAGAAAACAGUGAAGGAUUAGCUGAAAAUAUAUGAGCAGGUGACAUUGAGGUUUACUGAAAUAGCCAAUUUUGGAAUUCUCGGGUGCCAA` — result for “RBNS enrichment (R)”: 0.509.
`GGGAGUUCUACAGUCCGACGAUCGCUUUGUGCUUGGCAUGUCGUUAUUUUCCAUUUGACAUUAGGGCCUUUCCAAAUGAAUGUGAGGAGUUGCUUUCACUUCAAGACUGUCCUUCUUUUCAGUAAAACUUUAGUGGAAUUCUCGGGUGCCAA`: “RBNS enrichment (R)” 1.15.
For `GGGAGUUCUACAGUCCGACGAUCAACAAUCUUCAAGAGCCCUGUAAGGUUAAUGCCGAUAAAAUGACUGACUCCGCCCUUCUUCCUUAGUACGUAGUAUCCAGCAAGCAUUUGCCCCACCUUGUCUUGUUGAUUGGAAUUCUCGGGUGCCAA`, “RBNS enrichment (R)” read 0.774.
`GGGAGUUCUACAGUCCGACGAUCUUUAUCUGUAAGAACACAAAUUUGGCAUUACAGUUAAGGGAGUGAUUUGAAUUGAUUGACAAGUCCUGGCAUGUGACAAUUUUACUAAAUUACCAAGUUUGGUUUUUAAUUGGAAUUCUCGGGUGCCAA`: “RBNS enrichment (R)” 1.84.
`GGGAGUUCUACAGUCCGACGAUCUCCUUAGAGAUUAAAAGCGGUCAUACAAGUAUGUUCCUAUUUCAUUUCUAUUUUUCACACCAUCACAGGACAAACCAAAGUCAACUGAAAUAAAUGACAGUUUCCAUCCCUGGAAUUCUCGGGUGCCAA` — result for “RBNS enrichment (R)”: 0.489.

Block 4
Target: RING finger protein unkempt homolog, zinc fingers 1-6, GST-SBP tag (UNK, Homo sapiens, UniProt Q9C0B0, residues 30-357)
Chain of UniProt Q9C0B0 (30-357, looked up): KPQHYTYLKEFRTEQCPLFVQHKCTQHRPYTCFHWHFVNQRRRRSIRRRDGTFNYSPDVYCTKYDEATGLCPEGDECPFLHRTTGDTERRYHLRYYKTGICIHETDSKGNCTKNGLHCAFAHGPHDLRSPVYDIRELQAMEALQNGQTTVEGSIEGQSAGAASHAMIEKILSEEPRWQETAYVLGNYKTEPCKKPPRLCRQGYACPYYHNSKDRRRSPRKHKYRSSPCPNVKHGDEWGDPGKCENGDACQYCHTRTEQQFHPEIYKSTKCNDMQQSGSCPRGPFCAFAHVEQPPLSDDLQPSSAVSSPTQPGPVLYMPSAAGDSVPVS
Method: RNA Bind-n-Seq
Molecule type: RNA
Medium: in vitro
Tested at: not given
Notes: RNA with constant flanks, human and mouse sites, ends assumed
Reference: input RNA pool
Reading: higher = stronger binding
`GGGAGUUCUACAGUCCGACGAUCGUUAUUCUCGUUCAAGUUAAUCCAGGUGAGACUUUCACAAUAAGAGCAGAGGAUGGAACACUUCAGUGCAUUCAAGGACCUGCUGAAGUUCCCAUGAUGUCACCCAAUGGAUCCAUUCCUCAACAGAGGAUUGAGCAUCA` gave a bound/input enrichment of 0.169 ratio.
With `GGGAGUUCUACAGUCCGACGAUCAGGUCAGUGUACCAAGACAAUGAAAGCGAAGCAGGCAAGAACACCAUUGACUACAUCUACAACACGCGACUAAGCCGGGGCGAGUACGUGGACGUUCCUUUUCCCAACCAGUACCAGUAUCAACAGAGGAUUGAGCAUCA` the bound/input enrichment was 0.215 ratio.
`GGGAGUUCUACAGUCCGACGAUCGGGCUCCAGGACUCUCAAGCUGGCAUCAUAUUAUUUGUUAUUUAAAAGACACAAUUAUUUUAGGUAGAUCUUUUUUUUUAAUGAGGUGGGGUAAGGCUGUGACUUUUGAUCUAAACAAAACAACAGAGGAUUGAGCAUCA` has a bound/input enrichment of 17.1 ratio.
`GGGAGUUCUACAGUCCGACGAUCGCAUUUAAUCUGGCAGAACAGCACCUCGGCCUCACUAAACUGUUGGACCCCGAAGACAUCAGCGUGGACCAUCCUGAUGAGAAGUCCAUAAUCACUUAUGUGGUGACUUAUUACCACUACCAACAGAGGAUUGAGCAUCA` gave a bound/input enrichment of 0.186 ratio.
The bound/input enrichment of `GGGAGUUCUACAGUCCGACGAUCAUGCUCUAACUGGACAUGAAGGAAAGGGGCGAGGGAGGGGGGUGGGAUUUUUGGUGCAAGUAGCACAUGGUUUAAAUAUGAAUGAACAAACCUGUGAUCUAGUCCUUGUCUUGUAAUUGUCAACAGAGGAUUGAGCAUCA` is reported as 0.313 ratio.
With `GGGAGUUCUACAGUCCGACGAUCAAUCCAGUGGAUAUCUUGACCUACGUGGCUUGGAAGAUAAGUGGUUUUCCCAAAAACCGUGUUAUUGGAAGCGGUUGCAAUCUGGAUUCAGCCCGAUUCCGUUACCUAAUGGGGGAAAGGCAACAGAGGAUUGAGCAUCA` the bound/input enrichment was 0.23 ratio.
`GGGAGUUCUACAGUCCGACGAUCUGUAUGGUAACUAAAGGUGCCAGCAUGUUGACUUUAUUACAAUUUGUAUUACUUCCUCUGUAGUUCCUAAUGGACUCAAUCACAGACUCUGGAUAUUUGCACUUAUGUACUUGAUACUGACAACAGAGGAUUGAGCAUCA` gave a bound/input enrichment of 0.345 ratio.
`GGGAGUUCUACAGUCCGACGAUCAACUCCACGUGUGUGACUAUAAAACACCCUGUGGCCAAGAGCAGAUUGCCACUUCCCUUUCUCUGAAUUACUGCUUUCCCCGGUCAUUAACGUAUGGCCACAGCAUCCUGGGGUACAGGCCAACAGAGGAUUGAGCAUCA` gave a bound/input enrichment of 0.28 ratio.
`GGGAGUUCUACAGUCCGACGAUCACGCCCGCCCGAGAACUCUGCAGAAUGUGGAACCCUUGAGUUCAUACAGCACCUCCAUACUGUUCCCUCUCUCUCUCUCUUCCUCUGUAGCCAGCAGGCUGCCAUCCUGCACAGGGCCAGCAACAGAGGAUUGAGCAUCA` gave a bound/input enrichment of 0.192 ratio.
`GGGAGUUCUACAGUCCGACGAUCUUUAGACAAAGAGAAGGGCCUUUUUAUCCAACCCUAAGAUUACUUCACAAAUAUCCUUUUAUCCUGCCACACCAGCAGGUUGAUAAAGGAGCCAUCAAAUUUGUACUCAGUGGAGCAAAUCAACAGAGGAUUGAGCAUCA` gave a bound/input enrichment of 0.264 ratio.
The bound/input enrichment of `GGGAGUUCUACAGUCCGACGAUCCUCAUUCACCGGAAGAACCUCAACUAUCUGCACUUGGACUACAACUUCAACCUGAAGCCUGUCAAGACGCUCACCACCAAGGAAAGAAAGAAAUCCCGUUUUGGGAAUGCUUUCCAUCUACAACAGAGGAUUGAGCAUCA` is reported as 0.123 ratio.

A few entries again (block 4):
With `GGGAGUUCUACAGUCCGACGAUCAGGUCAGUGUACCAAGACAAUGAAAGCGAAGCAGGCAAGAACACCAUUGACUACAUCUACAACACGCGACUAAGCCGGGGCGAGUACGUGGACGUUCCUUUUCCCAACCAGUACCAGUAUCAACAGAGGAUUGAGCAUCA` the bound/input enrichment was 0.215 ratio.
`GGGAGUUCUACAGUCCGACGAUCGGGCUCCAGGACUCUCAAGCUGGCAUCAUAUUAUUUGUUAUUUAAAAGACACAAUUAUUUUAGGUAGAUCUUUUUUUUUAAUGAGGUGGGGUAAGGCUGUGACUUUUGAUCUAAACAAAACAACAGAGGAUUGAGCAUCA` has a bound/input enrichment of 17.1 ratio.
`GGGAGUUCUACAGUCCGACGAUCGCAUUUAAUCUGGCAGAACAGCACCUCGGCCUCACUAAACUGUUGGACCCCGAAGACAUCAGCGUGGACCAUCCUGAUGAGAAGUCCAUAAUCACUUAUGUGGUGACUUAUUACCACUACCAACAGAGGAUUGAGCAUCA` gave a bound/input enrichment of 0.186 ratio.
The bound/input enrichment of `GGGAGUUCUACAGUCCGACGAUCAUGCUCUAACUGGACAUGAAGGAAAGGGGCGAGGGAGGGGGGUGGGAUUUUUGGUGCAAGUAGCACAUGGUUUAAAUAUGAAUGAACAAACCUGUGAUCUAGUCCUUGUCUUGUAAUUGUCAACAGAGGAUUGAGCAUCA` is reported as 0.313 ratio.
With `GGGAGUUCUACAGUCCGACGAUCAAUCCAGUGGAUAUCUUGACCUACGUGGCUUGGAAGAUAAGUGGUUUUCCCAAAAACCGUGUUAUUGGAAGCGGUUGCAAUCUGGAUUCAGCCCGAUUCCGUUACCUAAUGGGGGAAAGGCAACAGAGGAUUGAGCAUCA` the bound/input enrichment was 0.23 ratio.
`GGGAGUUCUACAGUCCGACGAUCUGUAUGGUAACUAAAGGUGCCAGCAUGUUGACUUUAUUACAAUUUGUAUUACUUCCUCUGUAGUUCCUAAUGGACUCAAUCACAGACUCUGGAUAUUUGCACUUAUGUACUUGAUACUGACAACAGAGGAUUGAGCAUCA` gave a bound/input enrichment of 0.345 ratio.
